Published values gathered from unrelated publications.
Every numbered part comes from another study and shows a few of its results, in no order. Positions count from the first letter of the parent shown.

Sample 1
Target: CRIPT, C-terminal peptide
Technique: DHFR complementation, deep sequencing
Medium: yeast
Notes: single substitutions, model-inferred values
Reference: wild type
Direction: higher = weaker binding
Endpoint: binding free energy change
Parent: ERBIN, PDZ domain 1 (human); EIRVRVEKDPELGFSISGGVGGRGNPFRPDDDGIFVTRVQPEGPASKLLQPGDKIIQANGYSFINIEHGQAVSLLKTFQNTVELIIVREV; partner TKNYKQTSV
Variant = L74D; value = 0.523 kcal/mol
Variant = V6F; value = 0.949 kcal/mol
Variant = I86Q; value = 1.04 kcal/mol
Variant = K76A; value = 0.925 kcal/mol
Variant = E89A; value = 0.121 kcal/mol
Variant = A71Q; value = 0.496 kcal/mol

Sample 2
Target: Prothrombin, mature alpha-thrombin (F2, Homo sapiens, UniProt P00734)
Technique: aptamer microarray, sandwich
Form: DNA with 2'F-ANA
Medium: in vitro
Concentration: 200 nM
Notes: whole 15-mer aptamer, many near background
With: Cy3 exosite-II aptamer, 400 nM
Direction: higher = stronger binding
Endpoint: mean fluorescence intensity
Oligonucleotide: GGTTGGTGTGGTTGG
Modification = 2'F-ANA at 2 5 7 8 9 11 14 15; value = 114 a.u.
Modification = 2'F-ANA at 4 5 8 10 13 14 15; value = 46.4 a.u.
Modification = 2'F-ANA at 1 4 6 8 9 11 12 13 14 15; value = 54.4 a.u.
Modification = 2'F-ANA at 2 5 6 10 14 15; value = 43.3 a.u.
Modification = 2'F-ANA at 2 4 5 9 11 13; value = 51.7 a.u.
Modification = 2'F-ANA at 1 2 3 4 5 6 7 10 12 13; value = 54.3 a.u.
Modification = 2'F-ANA at 2 5 6 9 10 11 12 14; value = 44.9 a.u.

Sample 3
Target: CCNE1, cyclin fold, Cln2 fusion (human)
Technique: yeast growth competition, sequencing
Medium: yeast
Notes: strong parent motif
Reference: not given
Direction: higher = stronger binding
Endpoint: normalised enrichment score
Parent: PKN2 docking peptide (human); VSAVRKLDFSDTM; partner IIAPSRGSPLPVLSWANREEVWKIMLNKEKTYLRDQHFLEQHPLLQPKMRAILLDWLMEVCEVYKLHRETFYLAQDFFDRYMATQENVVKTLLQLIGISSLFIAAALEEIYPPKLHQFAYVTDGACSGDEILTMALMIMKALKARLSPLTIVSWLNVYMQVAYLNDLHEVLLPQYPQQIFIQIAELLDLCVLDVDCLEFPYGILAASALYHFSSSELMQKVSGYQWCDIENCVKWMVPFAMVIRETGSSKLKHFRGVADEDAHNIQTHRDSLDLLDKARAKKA
Variant = VSHVRKLDFSDTM [A3H]; value = 5.75
Variant = VSAVRKLDFSDRM [T12R]; value = 5.4
Variant = VSAVRKLDFSDAM [T12A]; value = 5.77
Variant = VSFVRKLDFSDTM [A3F]; value = 4.45
Variant = VSAVEKLDFSDTM [R5E]; value = 0.229
Variant = VSAVRKLDKSDTM [F9K]; value = -0.0707

Mixed results
Substance = PhoQ, residues 284 288 289 292 302 303 SSCCRF; target = PhoP, residues 12 14 15 18 19 NHFIF (Escherichia coli, UniProt P23836); test = Sort-seq, refers to: YFP reporter; test system = E. coli; setting = PhoQ-PhoP variant library, with: 10 µM Mg2+; scale = reference: high Mg2+ state, higher = stronger signaling; endpoint = fold induction; value = 8.5

Excerpt of the above (sample 2):
Modification = 2'F-ANA at 1 2 3 4 5 6 7 10 12 13; value = 54.3 a.u.
